Experimental data pooled from the literature.

Compound	organism	test	test system	conditions	MIC
C[N+]1=C2C(c3ccccc3)=[N+]([O-])c3ccccc3N2CCC1	Clostridioides difficile	–	–	–	8 to 64 µg/mL
OB(O)c1cnn(-c2cc(Cl)ncn2)c1	Citrobacter freundii	bacterial growth	AmpC overproducer clinical isolate	without cefotaxime	2050 µg/mL
CCCCCCCC(=O)NCCCC[C@H](NC(=O)CCCCCCC)C(=O)N[C@@H](CCCCNC(=O)CCCCCCC)C(=O)NCC(=O)NCC(=O)NCC(=O)N[C@@H](CS)C(=O)N[C@@H](CCCNC(=N)N)C(=O)N[C@@H](CCCCN)C(=O)N1CCC[C@H]1C(=O)N[C@@H](CS)C(=O)N[C@@H](CCCNC(=N)N)C(=O)N[C@@H](CCCCN)C(=O)N1CCC[C@H]1C(=O)N[C@@H](CS)C(=O)N[C@@H](CCCNC(=N)N)C(=O)N[C@@H](CCCCN)C(=O)N1CCC[C@H]1C(N)=O	Candida tropicalis	broth microdilution	CGMCC 2.197, RPMI-1640	48 h, 30 °C	8 µM
CC[C@H](C)[C@@H]1NC(=O)[C@H](CO)NC(=O)C(C)(CCCCN)NC(=O)[C@@H]2CSSC[C@@H](C(=O)N[C@@H](Cc3ccc(O)cc3)C(N)=O)NC(=O)[C@H](CCCCN)NC(=O)[C@@H]3CSSC[C@H](NC(=O)[C@H](CCCNC(=N)N)NC(=O)C(C)(CC(C)C)NC(=O)[C@H](CC(=O)O)NC(=O)[C@H](CC(=O)O)NC(=O)[C@H](CCC(=O)O)NC(=O)[C@H](CC(N)=O)NC(=O)[C@H](Cc4c[nH]c5ccccc45)NC(=O)[C@@H]4CCCN4C(=O)CNC(=O)[C@H](CC(N)=O)NC(=O)[C@@H](NC(=O)CNC(=O)[C@H](Cc4ccccc4)NC(=O)CN)CSSC[C@H](NC(=O)[C@H](Cc4ccc(O)cc4)NC(=O)CNC(=O)CNC(=O)[C@H](CCCCN)NC(=O)[C@H](Cc4ccc(O)cc4)NC(=O)CNC(=O)[C@H](CCCCN)NC1=O)C(=O)N[C@@H](C)C(=O)N[C@@H](CCCCN)C(=O)NCC(=O)NCC(=O)N[C@@H](Cc1ccccc1)C(=O)N[C@@H](C(C)C)C(=O)N3)C(=O)N[C@@H](Cc1c[nH]cn1)C(=O)NC(C)(C)C(=O)N[C@@H](Cc1c[nH]cn1)C(=O)N2 (stereo partly shown)	Streptococcus pneumoniae	broth microdilution	BS-442	18 h	0.5 µM
CC[C@H](C)[C@H](NC(=O)[C@H](CCCNC(=N)N)NC(=O)[C@H](CO)NC(=O)[C@H](Cc1ccc(O)cc1)NC(=O)[C@@H](NC(=O)[C@@H](NC(=O)[C@H](C)NC(=O)CNC(=O)[C@H](CCCCN)NC(=O)[C@H](CCCCN)NC(=O)CCNC(=O)CCCCCNC(=O)[C@H](CCCNC(=N)N)NC(=O)CCCCCNC(=O)[C@H](CCCNC(=N)N)NC(=O)[C@H](CCCNC(=N)N)NC(=O)CCCCCNC(=O)[C@H](CCCNC(=N)N)NC(=O)[C@H](CCCNC(=N)N)NC(=O)CCCCCNC(=O)[C@H](CCCNC(=N)N)NC(=O)[C@H](CCCNC(=N)N)NC(=O)CCCCCNC(=O)[C@@H](N)CCCNC(=N)N)C(C)C)[C@@H](C)O)C(=O)N[C@@H](CO)C(=O)NCC(=O)N[C@@H](CCC(N)=O)C(=O)N[C@@H](Cc1ccc(O)cc1)C(=O)N[C@@H](CCCCN)C(=O)O	Escherichia coli	–	ATCC 25922	1 h, 37 °C, after 50% fetal bovine serum	24 µM
CC[C@H](C)[C@H](NC(=O)[C@H](CCCCN)NC(=O)[C@H](CCCCN)NC(=O)[C@H](Cc1ccccc1)NC(=O)[C@H](Cc1ccccc1)NC(=O)[C@H](CCCCN)NC(=O)[C@H](CCCCN)NC(=O)[C@H](Cc1ccccc1)NC(=O)[C@H](CCCNC(=N)N)NC(=O)[C@@H](N)CCCCN)C(=O)N[C@@H](CCCCN)C(=O)N[C@@H](CCCCN)C(=O)N[C@@H](CO)C(=O)N[C@H](C(=O)N[C@@H](CCCCN)C(=O)N[C@@H](CCCCN)C(=O)N[C@@H](CCCNC(=N)N)C(=O)N[C@H](C(=O)N[C@@H](CCCCN)C(=O)N[C@@H](CCCCN)C(=O)N[C@@H](CC(C)C)C(=O)N[C@@H](Cc1ccccc1)C(=O)N[C@@H](CCCCN)C(=O)N[C@@H](CCCCN)C(=O)N1CCC[C@H]1C(=O)N[C@@H](CCCNC(=N)N)C(=O)N[C@H](C(=O)N[C@H](C(=O)N1CCC[C@H]1C(=O)N[C@H](C(=O)N[C@@H](CO)C(=O)N[C@H](C(=O)N1CCC[C@H]1C(=O)N[C@@H](Cc1ccccc1)C(=O)O)[C@@H](C)CC)[C@@H](C)CC)[C@@H](C)CC)C(C)C)C(C)C)C(C)C	Escherichia coli	–	E24	20 h, added: 150 mM NaCl	4 µg/mL
CC1(C)C(NC(=O)C(=NOC2(C(=O)O)CC2)c2csc(N)n2)C(=O)N1OS(=O)(=O)O (stereo not shown)	Klebsiella pneumoniae	–	ATCC 1706, ESBL and NDM	compound alone	2 µg/mL
CC[C@H](C)[C@@H]1NC(=O)[C@@H]2CCCN2C(=O)[C@H](C)NC(=O)[C@H](CC(C)C)NC(=O)[C@@H]2CCCN2C(=O)[C@H](C)NC(=O)[C@@H]2CSSC[C@H](NC(=O)[C@H](C)NC(=O)[C@H](C)NC(=O)[C@H](Cc3ccc(O)cc3)NC(=O)[C@@H]3CCCN3C(=O)CNC(=O)[C@H](Cc3c[nH]c4ccccc34)NC1=O)C(=O)N[C@@H](CC(C)C)C(=O)N[C@@H](CO)C(=O)N[C@@H](C)C(=O)N[C@H]1CSSC[C@H](NC(=O)[C@H](C(C)C)NC(=O)[C@@H]3CCCN3C(=O)CNC(=O)CNC(=O)CNC(=O)[C@H](C)NC(=O)[C@H](C)NC(=O)[C@H](CC(C)C)NC1=O)C(=O)N[C@@H](CC(C)C)C(=O)N[C@@H](C)C(=O)N[C@@H](C(C)C)C(=O)N2	Salmonella typhimurium	–	ATCC 14028	–	> 128 µg/mL
CC[C@H](C)[C@H](N)C(=O)N[C@@H](CCCNC(=N)N)C(=O)N[C@H](C(=O)N[C@@H](Cc1c[nH]c2ccccc12)C(=O)N[C@@H](CCCCN)C(=O)N[C@@H](CCCCN)C(=O)N[C@H](C(=O)N[C@H](C(=O)N[C@@H](CCCNC(=N)N)C(=O)N[C@@H](CCCCN)C(=O)N[C@@H](Cc1c[nH]c2ccccc12)C(=O)N[C@@H](CCCCN)C(=O)N[C@@H](C)C(=O)N[C@H](C(=O)N[C@@H](Cc1c[nH]c2ccccc12)C(=O)N[C@@H](Cc1c[nH]cn1)C(N)=O)[C@@H](C)CC)C(C)C)[C@@H](C)CC)C(C)C	Enterobacter sp.	broth dilution	KCTC 2625	–	< 3.1 µM
C[N+]1=C2C(c3ccc(Cl)cc3)=[N+]([O-])c3ccccc3N2CCC1	Clostridioides difficile	–	–	–	4 to 32 µg/mL
CC[C@H](C)[C@H](NC(=O)[C@H](C)NC(=O)[C@@H](NC(=O)[C@H](CC(=O)O)NC(=O)[C@H](CCCCN)NC(=O)[C@H](CO)NC(=O)[C@@H](NC(=O)[C@H](CC(N)=O)NC(=O)[C@H](C)NC(=O)[C@@H](NC(=O)[C@H](CCC(=O)O)NC(=O)[C@H](CCCCN)NC(=O)[C@@H](NC(=O)[C@@H](NC(=O)[C@H](Cc1c[nH]cn1)NC(=O)[C@H](CCCCN)NC(=O)[C@@H](NC(=O)[C@H](CCCCN)NC(=O)[C@H](CCCCN)NC(=O)[C@@H](NC(=O)[C@H](CC(C)C)NC(=O)[C@H](CCCCN)NC(=O)[C@H](CC(N)=O)NC(=O)[C@H](Cc1ccccc1)NC(=O)[C@H](CCCNC(=N)N)NC(=O)[C@H](CCCCN)NC(=O)[C@H](CCCNC(=N)N)NC(=O)[C@H](Cc1ccccc1)NC(=O)CN)C(C)C)C(C)C)[C@@H](C)O)[C@@H](C)CC)[C@@H](C)O)C(C)C)C(C)C)C(=O)N[C@H](C(=O)N[C@@H](C)C(=O)NCC(=O)N[C@@H](CO)C(=O)NCC(=O)N[C@H](C(=O)N[C@@H](C)C(=O)N[C@H](C(=O)NCC(=O)N[C@@H](C)C(=O)N[C@@H](C)C(=O)N[C@@H](CCSC)C(N)=O)C(C)C)C(C)C)C(C)C	Proteus mirabilis	–	DSM 4479, CAMHB	–	> 1020 µg/mL
CC[C@H](C)[C@H](N)C(=O)N[C@@H](CCCNC(=N)N)C(=O)N[C@H](C(=O)N[C@@H](Cc1c[nH]c2ccccc12)C(=O)N[C@@H](Cc1ccccc1)C(=O)N[C@H](C(=O)N[C@@H](CCCCN)C(=O)N[C@H](C(=O)N[C@@H](CCCNC(=N)N)C(=O)N[C@@H](CCCCN)C(=O)N[C@@H](CCSC)C(=O)N[C@@H](CCCCN)C(=O)N[C@@H](C)C(=O)N[C@H](C(=O)N[C@@H](Cc1ccc(O)cc1)C(=O)N[C@@H](Cc1c[nH]cn1)C(N)=O)[C@@H](C)CC)C(C)C)[C@@H](C)CC)C(C)C	Enterobacter sp.	broth dilution	KCTC 2625	–	50 µM
CCCC(C)Oc1cccc(NC(=O)c2cccnc2)c1 (stereo not shown)	Saccharomyces cerevisiae	–	S288c wild type	–	32 µg/mL

Repeated from above:
Compound	organism	test	test system	conditions	MIC
CC[C@H](C)[C@H](NC(=O)[C@H](CCCCN)NC(=O)[C@H](CCCCN)NC(=O)[C@H](Cc1ccccc1)NC(=O)[C@H](Cc1ccccc1)NC(=O)[C@H](CCCCN)NC(=O)[C@H](CCCCN)NC(=O)[C@H](Cc1ccccc1)NC(=O)[C@H](CCCNC(=N)N)NC(=O)[C@@H](N)CCCCN)C(=O)N[C@@H](CCCCN)C(=O)N[C@@H](CCCCN)C(=O)N[C@@H](CO)C(=O)N[C@H](C(=O)N[C@@H](CCCCN)C(=O)N[C@@H](CCCCN)C(=O)N[C@@H](CCCNC(=N)N)C(=O)N[C@H](C(=O)N[C@@H](CCCCN)C(=O)N[C@@H](CCCCN)C(=O)N[C@@H](CC(C)C)C(=O)N[C@@H](Cc1ccccc1)C(=O)N[C@@H](CCCCN)C(=O)N[C@@H](CCCCN)C(=O)N1CCC[C@H]1C(=O)N[C@@H](CCCNC(=N)N)C(=O)N[C@H](C(=O)N[C@H](C(=O)N1CCC[C@H]1C(=O)N[C@H](C(=O)N[C@@H](CO)C(=O)N[C@H](C(=O)N1CCC[C@H]1C(=O)N[C@@H](Cc1ccccc1)C(=O)O)[C@@H](C)CC)[C@@H](C)CC)[C@@H](C)CC)C(C)C)C(C)C)C(C)C	Escherichia coli	–	E24	20 h, added: 150 mM NaCl	4 µg/mL
CC[C@H](C)[C@H](N)C(=O)N[C@@H](CCCNC(=N)N)C(=O)N[C@H](C(=O)N[C@@H](Cc1c[nH]c2ccccc12)C(=O)N[C@@H](CCCCN)C(=O)N[C@@H](CCCCN)C(=O)N[C@H](C(=O)N[C@H](C(=O)N[C@@H](CCCNC(=N)N)C(=O)N[C@@H](CCCCN)C(=O)N[C@@H](Cc1c[nH]c2ccccc12)C(=O)N[C@@H](CCCCN)C(=O)N[C@@H](C)C(=O)N[C@H](C(=O)N[C@@H](Cc1c[nH]c2ccccc12)C(=O)N[C@@H](Cc1c[nH]cn1)C(N)=O)[C@@H](C)CC)C(C)C)[C@@H](C)CC)C(C)C	Enterobacter sp.	broth dilution	KCTC 2625	–	< 3.1 µM
